{"data": "Measurements pooled from the literature", "route": "intravenous", "note": "Each line is one published result; not all experiments were run side by side."}
{"Structure (SMILES)": "N[C@H](COc1ccccc1C(F)(F)F)c1ccccc1", "species": "rat", "matrix": "plasma", "dose": "5 mg/kg", "clearance": "167 mL/min/kg"}
{"Structure (SMILES)": "Cn1cc(-c2cc(N3CCCS3(=O)=O)ccc2N[C@H]2CC[C@H](C)CC2)c2cc[nH]c2c1=O", "species": "Sprague-Dawley rat", "matrix": "plasma", "dose": "1 mg/kg", "clearance": "76.4 mL/min/kg"}
{"Structure (SMILES)": "O=C(Nc1nc2cc(C(F)(F)F)cc(NC3CC3)n2n1)c1cccnc1", "species": "male Sprague-Dawley rat", "matrix": "plasma", "dose": "0.6 mg/kg", "clearance": "18.3 mL/min/kg"}
{"Structure (SMILES)": "Cc1cc(/C=C/C#N)cc(C)c1Oc1nc(NC2CCN(Cc3ccc(P(C)(C)=O)cc3)CC2)nc2ccsc12", "species": "male Sprague-Dawley rat", "matrix": "plasma", "dose": "2 mg/kg", "clearance": "52.1 mL/min/kg"}
{"Structure (SMILES)": "COc1ccc2c(c1OCc1ccccc1)C[C@@H](C(=O)O)N(c1nc3ccc(C#N)cc3o1)C2", "species": "male Sprague-Dawley rat", "matrix": "plasma", "dose": "1 mg/kg", "clearance": "1.7 mL/min/kg"}
{"Structure (SMILES)": "Cc1ncnc(C)c1-c1ccc(C(=O)N2CC[C@H](C(=O)Nc3cc(F)c(F)c(F)c3)C2)[nH]1", "species": "male Sprague-Dawley rat", "matrix": "plasma", "dose": "0.5 mg/kg", "clearance": "15.2 mL/min/kg"}
{"Structure (SMILES)": "CSCOC1C(=O)C2(C)C(OCSC)CC3OCC3(OC(C)=O)C2C(OC(=O)c2ccccc2)C2(O)CC(OC(=O)C(O)C(C=C(C)C)NC(=O)OC(C)(C)C)C(C)=C1C2(C)C (centres unmarked)", "species": "male Sprague-Dawley rat", "matrix": "plasma", "dose": "4 mg/kg", "clearance": "60 mL/min/kg"}
{"Structure (SMILES)": "CC12CC3CC(C)(C1)CC(NC(=O)Nc1ccc(C(=O)N4CCCC(C(N)=O)C4)cc1)(C3)C2 (centres unmarked)", "species": "Sprague-Dawley rat", "matrix": "plasma", "dose": "10 mg/kg", "clearance": "12.5 mL/min"}
{"Structure (SMILES)": "COC(=O)c1ccc2c(c1)NC(=O)/C2=C(\\Nc1ccc2c(c1)CCN2C(=O)CN1CCOCC1)c1ccccc1", "species": "Sprague-Dawley rat", "matrix": "blood", "dose": "2 mg/kg", "clearance": "13.8 mL/min/kg"}
{"Structure (SMILES)": "COc1ccc(S(=O)(=O)N2CCc3ccccc3C2)cc1N1CCN(C(=O)c2ccc(F)cc2C(F)(F)F)CC1", "species": "rat", "matrix": "plasma", "dose": "10 mg/kg", "notes": "single dose", "clearance": "97.1 mL/min/kg"}
{"Structure (SMILES)": "Cc1ccc(OCC(=O)N(Cc2cccs2)c2ccn[nH]2)cc1", "species": "male Sprague-Dawley rat", "matrix": "plasma", "dose": "1 mg/kg", "notes": "single dose", "clearance": "79 mL/min/kg"}
{"Structure (SMILES)": "COc1ccc2c(c1OCc1ccccc1)C[C@@H](C(=O)O)N(c1nc3ccc(F)cc3o1)C2", "species": "male Sprague-Dawley rat", "matrix": "plasma", "dose": "1 mg/kg", "clearance": "2.1 mL/min/kg"}
{"Structure (SMILES)": "CC(C)(C)C(=O)Nc1ccc2[nH]c(CN3CCC(N(CCCN4CCOCC4)CC4OC(n5cnc6c(N)ncnc65)C(O)C4O)CC3)nc2c1 (centres unmarked)", "species": "male Sprague-Dawley rat", "matrix": "plasma", "dose": "20 mg/kg", "clearance": "123 mL/min/kg"}
{"Structure (SMILES)": "CCCN(c1ccc(C(=O)NCCC(=O)O)cc1)S(=O)(=O)c1cc(C)c(-c2ccc(C(C)(C)C)cc2)c(C)c1", "species": "rat", "matrix": "plasma", "dose": "2 mg/kg", "clearance": "23.6 mL/min/kg"}
